Experimental data collected from several papers.
Each line is one published result; not all experiments were run side by side.

CC1(C)[C@H](NC(=O)/C(=N\OC2(C(=O)O)CCCCC2)c2csc(N)n2)C(=O)N1OS(=O)(=O)O
MIC (Enterobacter aerogenes; agar dilution; ATCC 13048, susceptible): 4 µg/mL

CC[C@H](C)[C@H](NC(=O)[C@H](CCC(N)=O)NC(=O)[C@H](Cc1ccccc1)NC(=O)[C@H](CC(N)=O)NC(=O)[C@H](CCCCN)NC(=O)[C@H](CC(C)C)NC(=O)[C@H](CCCNC(=N)N)NC(=O)[C@H](CCCCN)NC(=O)[C@H](CCCCN)NC(=O)[C@@H](NC(=O)[C@H](CO)NC(=O)[C@H](CCCCN)NC(=O)CNC(=O)[C@H](CC(C)C)NC(=O)[C@H](CCCCN)NC(=O)[C@H](CCCCN)NC(=O)[C@H](CC(C)C)NC(=O)[C@H](CCCCN)NC(=O)[C@H](CCCCN)NC(=O)[C@H](CCCNC(=N)N)NC(=O)[C@H](CC(C)C)NC(=O)CNC(=O)[C@@H](N)CCCNC(=N)N)[C@@H](C)CC)C(=O)NCC(=O)N[C@@H](Cc1ccccc1)C(=O)N[C@@H](CO)C(=O)N[C@H](C(=O)N1CCC[C@H]1C(=O)N[C@@H](Cc1ccccc1)C(=O)N[C@@H](C)C(=O)NCC(=O)O)C(C)C
MIC (Bordetella bronchiseptica; broth microdilution; ATCC 10580; 16 h, 37 °C, cation-adjusted Mueller-Hinton broth): 4 µg/mL

Nc1ncc(-c2cc(-c3cnn(CC(F)(F)F)c3)ncc2F)nc1C(=O)NC1CNCC(F)C1 (stereo not shown)
remaining binding (JNK1; KINOMEscan competition binding; 1 µM; reference: DMSO control): 100%

COC1CN([C@H]2CC[C@H]([C@@]3(C)Oc4c(Cl)cc(C(=O)NCc5c(SC)cc(C)[nH]c5=O)c(C)c4O3)CC2)C1
log2 fold change (RNA-seq, measured: PKIB; human, whole blood; dose not given, 24 h; reference: pretreatment baseline): 2.6

C[C@@H]1C(=O)O[C@@H](C)/C=C/C=C\[C@@H](C)[C@@H]2C=C[C@@H]3C[C@@]4(C)O[C@H]4[C@@H](C)[C@H]3[C@@H]2C(=O)C(Cl)(Cl)C1=O
MIC (Staphylococcus aureus; MRSA clinical isolate; resistant: OXA,CLI,ERY,MXF): 0.05 µg/mL

C=CC(=O)Nc1cccc(Cn2ncc3cnc(Nc4cnn(CCOC)c4)nc32)c1
binding (human BIKE; KINOMEscan; 100 nM; reference: control): 3.3%

CC1(C)[C@H](NC(=O)/C(=N\OCc2c(Cl)cccc2Cl)c2nsc(N)n2)C(=O)N1OS(=O)(=O)O
MIC (Enterobacter aerogenes; agar dilution; ATCC 13048, susceptible): 4 µg/mL

CO[C@H]1/C=C/O[C@@]2(C)Oc3c(C)c(O)c4c(c3C2=O)C2=NC3(CCN(CC(C)C)CC3)NC2=C(NC(=O)/C(C)=C\C=C\[C@H](C)[C@H](O)[C@@H](C)[C@@H](O)[C@@H](C)[C@H](OC(=O)c2cccc(F)c2)[C@@H]1C)C4=O
MIC (Mycobacteroides abscessus subsp. abscessus; K21 clinical isolate; 90% growth inhibition): 0.102 µM

CCCC(C)Oc1cccc(NC(=O)c2cccnc2)c1 (stereo not shown)
MIC (Lodderomyces parapsilosis; microbial growth, broth dilution; ATCC22019): 8 µg/mL

CN[C@H](CC(C)C)C(=O)N[C@H]1C(=O)N[C@@H](CC(N)=O)C(=O)N[C@H]2C(=O)N[C@H]3C(=O)N[C@H](C(=O)N[C@H](C(=O)O)c4cc(O)cc(O)c4-c4cc3ccc4O)[C@H](O)c3ccc(c(Cl)c3)Oc3cc2cc(c3O[C@@H]2O[C@H](CO)[C@@H](O)[C@H](O)[C@H]2O[C@H]2C[C@](C)(N)[C@H](O)[C@H](C)O2)Oc2ccc(cc2Cl)[C@H]1O
MIC (Listeria monocytogenes; 1.108, glucose peptone yeast broth; 18 to 20 h, 37 °C): < 1 µM

CC1(C)C(NC(=O)C(=NOCC(=O)N2CC3CCCC3C2C(=O)O)c2csc(N)n2)C(=O)N1OS(=O)(=O)O (stereo not shown)
MIC (Enterobacter aerogenes; agar dilution; ATCC 13048, susceptible): 2 µg/mL

CC1C=CC=CC(C)C2C=CC3CC(C)(O)C(Cl)C(C)C3C2C(=O)C(Cl)(Cl)C(=O)C(C)C(=O)O1 (stereo not shown)
MIC (Staphylococcus aureus; MSSA clinical isolate; resistant PEN/CLI/SXT/TET): 0.1 µg/mL

Cc1nn(-c2cccc(N)c2)c(=O)c2cnc(Nc3ccc(N4CCNCC4)cc3)nc12
IC50 (Epidermal growth factor receptor (EGFR, Homo sapiens, UniProt P00533, L861Q); SelectScreen kinase): 2880 nM

A few entries again:
Cc1nn(-c2cccc(N)c2)c(=O)c2cnc(Nc3ccc(N4CCNCC4)cc3)nc12
IC50 (Epidermal growth factor receptor (EGFR, Homo sapiens, UniProt P00533, L861Q); SelectScreen kinase): 2880 nM
